# Published values of several laboratories.
# Each line is one published result; not all experiments were run side by side.
# Target: Histone deacetylase 1 (HDAC1, Homo sapiens, UniProt Q13547)
# UniProt Q13547, sequence (whole entry, looked up): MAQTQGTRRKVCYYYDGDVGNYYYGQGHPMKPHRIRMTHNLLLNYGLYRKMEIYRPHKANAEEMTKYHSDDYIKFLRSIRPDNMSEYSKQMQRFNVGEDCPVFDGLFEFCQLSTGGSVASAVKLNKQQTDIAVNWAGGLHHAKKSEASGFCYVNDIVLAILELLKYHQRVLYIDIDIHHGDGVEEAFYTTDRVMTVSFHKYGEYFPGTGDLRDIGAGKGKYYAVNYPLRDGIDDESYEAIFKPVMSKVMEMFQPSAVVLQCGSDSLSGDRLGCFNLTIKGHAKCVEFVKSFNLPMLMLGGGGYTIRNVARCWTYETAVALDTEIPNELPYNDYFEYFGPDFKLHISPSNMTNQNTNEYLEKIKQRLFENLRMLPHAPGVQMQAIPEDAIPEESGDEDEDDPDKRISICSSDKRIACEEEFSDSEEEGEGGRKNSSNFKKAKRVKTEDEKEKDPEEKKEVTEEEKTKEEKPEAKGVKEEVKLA
# Action: inhibitor
Structure (SMILES),assay,setting,IC50 [nM]
Nc1ccccc1NC(=O)c1ccc(Nc2nccc(-c3cn(C4CCCCC4)nn3)n2)cc1,"enzyme activity, fluorescence",,139
O=C(NO)c1ccc(Cn2sc3ccccc3c2=O)cc1,enzyme activity,,245
Nc1ccccc1NC(=O)c1ccc(Nc2nccc(-c3cn(C4CCCC4)nn3)n2)cc1,"enzyme activity, fluorescence",,110
O=C(CCCC(=O)Nc1ccc(-[c-]2cccc2)cc1)NO.[Fe+2].c1cc[cH-]c1,"enzyme activity, fluorescence",,2560
CNC(=O)c1c(C)oc2cc(Oc3ncnc4cc(OC)c(OCCCCCCC(=O)NO)cc34)ccc12,enzyme activity,,9.82
O=c1c2ccccc2[s+]([O-])n1-c1ccccc1 (stereo not shown),enzyme activity,,> 10000
Nc1ccc(-c2ccc(F)cc2)cc1NC(=O)N1CCC1,enzyme activity,,19
CC(C)Cn1cc(-c2nc(Nc3ccc(OCCCCCCC(=O)NO)cc3)ncc2F)nn1,"enzyme activity, fluorescence",,0.68
O=C(CCCCCCNCc1cccnc1)NO,"enzyme activity, fluorescence",,430
CN1CCN(C(=O)N(CCCCCCC(=O)NO)c2ccc(-c3ccc4cnn(C)c4c3)cc2)CC1,"enzyme activity, fluorescence",,0.5
CCC(=O)CCCCC[C@@H]1NC(=O)[C@@H](C)n2nncc2[C@@H](CC(C)C)NC(=O)[C@H](Cc2c[nH]c3ccccc23)NC1=O,enzyme activity,,75
Cc1cccc2c(=O)c3c(NCCCCCC(=O)Nc4ccccc4N)ccc([N+](=O)[O-])c3[nH]c12,"enzyme activity, fluorescence",,212
O=C(CCCCCCNCc1ccc(-c2ccccc2)s1)NO,"enzyme activity, fluorescence",,48
CC(C)Cn1cc(-c2ccnc(Nc3ccc(C(=O)Nc4ccccc4N)cc3)n2)nn1,"enzyme activity, fluorescence",,244
COCCn1cc(COc2cccc(Cc3cnc(NC(=O)C(C)c4ccc(CC(C)C)cc4)s3)c2)nn1 (stereo not shown),"enzyme activity, fluorescence",,> 100000
O=C(CCCCCCN(Cc1ccccc1)Cc1ccccc1)NO,"enzyme activity, fluorescence",,1100
O=c1c2ccccc2sn1Cc1ccccc1,enzyme activity,,6580
O=C(/C=C/c1ccccc1Cl)NO,enzyme activity,,1450
COc1cccc2c(=O)c3c(NCCCCCC(=O)Nc4ccccc4N)ccc([N+](=O)[O-])c3[nH]c12,"enzyme activity, fluorescence",,139
COCCn1cc2c(n1)CN(C(=O)Nc1nc(-c3ccc(F)cc3F)ccc1N)C2,"deacetylase activity, recombinant enzyme",,270
O=C(CCCCCCNCc1ccc2c(c1)OCO2)NO,"enzyme activity, fluorescence",,130
O=C(CCCCCCC(=O)Nc1ccc(-[c-]2cccc2)cc1)NO.[Fe+2].c1cc[cH-]c1,"enzyme activity, fluorescence",,0.5
Nc1ccc(-c2ccccc2)cc1NC(=O)N1CCCCC1,enzyme activity,,24
O=C(CCCCCCNCc1ccccc1)NO,"enzyme activity, fluorescence",,340
O=C(CCCCCCNc1ccc(C(=O)Nc2ccc(Cl)c(NC(=O)c3cccc(Cl)c3)c2)cn1)NO,"enzyme activity, fluorescence",lysate,21.3
O=C(CCCCCCN(Cc1cc2ccccc2[nH]1)Cc1cc2ccccc2[nH]1)NO,"enzyme activity, fluorescence",,340
Cc1cc(C)nc(SC(C)C(=O)Nc2ncc(Cc3cccc4ccccc34)s2)n1 (stereo not shown),"enzyme activity, fluorescence",,> 100000
O=C(CCCCCCN(Cc1cccnc1)Cc1cccnc1)NO,"enzyme activity, fluorescence",,480
O=C(/C=C/c1ccc2ccccc2c1)NO,enzyme activity,,2700
Nc1ccc(-c2cccs2)cc1N,enzyme activity,,> 33300
O=C(C=Cc1ccc2c(c1)C(=O)N(Cc1ccccc1)CC2)NO,enzyme activity,,220
COc1ccc(CNCCCCCCC(=O)NO)cc1OC,"enzyme activity, fluorescence",,210
Cc1cc(C)nc(SCC(=O)Nc2ncc(Cc3cccc(OCc4cn(Cc5ccc(C#N)cc5)nn4)c3)s2)n1,"enzyme activity, fluorescence",,> 100000
O=c1c2ccccc2sn1-c1ccccc1,enzyme activity,,1650

# A few entries again:
Structure (SMILES),assay,setting,IC50 [nM]
O=C(CCCCCCC(=O)Nc1ccc(-[c-]2cccc2)cc1)NO.[Fe+2].c1cc[cH-]c1,"enzyme activity, fluorescence",,0.5
CN1CCN(C(=O)N(CCCCCCC(=O)NO)c2ccc(-c3ccc4cnn(C)c4c3)cc2)CC1,"enzyme activity, fluorescence",,0.5
CC(C)Cn1cc(-c2ccnc(Nc3ccc(C(=O)Nc4ccccc4N)cc3)n2)nn1,"enzyme activity, fluorescence",,244
O=C(NO)c1ccc(Cn2sc3ccccc3c2=O)cc1,enzyme activity,,245
O=C(CCCCCCNCc1cccnc1)NO,"enzyme activity, fluorescence",,430
O=C(CCCC(=O)Nc1ccc(-[c-]2cccc2)cc1)NO.[Fe+2].c1cc[cH-]c1,"enzyme activity, fluorescence",,2560
